Measured values gathered from unrelated publications.
Protocols differ between the studies behind these lines. Numbers after ± are the reported error.

CCCC[C@H](NC(=O)CNC(=O)CNC(=O)CN1CCN(CC(=O)O)CCN(CC(=O)O)CCN(CC(=O)O)CC1)C(=O)N[C@H]1CC(=O)NCCCC[C@@H](C(N)=O)NC(=O)[C@H](Cc2c[nH]c3ccccc23)NC(=O)[C@H](CCCNC(=N)N)NC(=O)[C@@H](Cc2ccccc2)NC(=O)[C@H](Cc2c[nH]cn2)NC1=O [lutetium-177 labelled] — tissue uptake (C57 mouse, female, skin; intravenous, 0.037 MBq, 4 h): 0.5 ± 0.09 %ID/g
N=C(N)NCCC[C@@H]1NC(=O)[C@H](CCCCNC(=O)CC[C@H](NC(=O)CC[C@H](NC(=O)CN2CCN(CC(=O)O)CCN(CC(=O)O)CCN(CC(=O)O)CC2)C(=O)N[C@@H](CCC(=O)NCCCC[C@@H]2NC(=O)[C@@H](Cc3ccccc3)NC(=O)[C@H](CC(=O)O)NC(=O)CNC(=O)[C@H](CCCNC(=N)N)NC2=O)C(=O)NCCCC[C@@H]2NC(=O)[C@@H](Cc3ccccc3)NC(=O)[C@H](CC(=O)O)NC(=O)CNC(=O)[C@H](CCCNC(=N)N)NC2=O)C(=O)NCCCC[C@@H]2NC(=O)[C@@H](Cc3ccccc3)NC(=O)[C@H](CC(=O)O)NC(=O)CNC(=O)[C@H](CCCNC(=N)N)NC2=O)NC(=O)[C@@H](Cc2ccccc2)NC(=O)[C@H](CC(=O)O)NC(=O)CNC1=O [indium-111 labelled] — tissue uptake (female athymic nu/nu mice, liver; intravenous, 0.5 h): 2.98 ± 0.51 %ID/g
CCCC[C@H](NC(=O)CCCCCCCNC(=O)CN1CCN(CC(=O)O)CCN(CC(=O)O)CC1)C(=O)N[C@H]1CC(=O)NCCCC[C@@H](C(N)=O)NC(=O)[C@H](Cc2c[nH]c3ccccc23)NC(=O)[C@H](CCCNC(=N)N)NC(=O)[C@@H](Cc2ccccc2)NC(=O)[C@H](Cc2c[nH]cn2)NC1=O [copper-64 labelled] — tissue uptake (C57 mice, pancreas; intravenous, 0.37 MBq, 2 h): 0.2 ± 0.18 %ID/g
CC(C)C[C@@H](NC(=O)[C@@H](CC(C)C)NC(=O)[C@@H](CC(=O)O)NC(=O)[C@@H](CC(C)C)NC(=O)[C@@H](CC(C)C)NC(=O)[C@@H](CC(C)C)NC(=O)[C@H](NC(=O)[C@@H](CC(=O)O)NC(=O)[C@H](NC(=O)[C@H]1CCCN1C(=O)[C@@H](Cc1ccccc1)NC(=O)[C@@H](CC(C)C)NC(=O)[C@@H](CC(C)C)NC(=O)[C@@H](CC(=O)O)NC(=O)[C@@H](CC(C)C)NC(=O)[C@@H](Cc1ccc(O)cc1)NC(=O)[C@@H](C)NC(=O)[C@@H](CCCNC(=N)N)NC(=O)[C@@H](Cc1c[nH]c2ccccc12)NC(=O)[C@H]1CCCN1C(=O)[C@@H](CC(N)=O)NC(=O)[C@@H](CCC(N)=O)NC(=O)[C@@H](CC(=O)O)NC(=O)[C@@H](CC(=O)O)NC(=O)[C@@H](CSC1CC(=O)N(CCNC(=O)CN2CCN(CC(=O)O)CCN(CC(=O)O)CC2)C1=O)NC(=O)[C@@H](C)N)[C@H](C)O)[C@H](C)O)C(=O)N[C@H](Cc1c[nH]c2ccccc12)C(=O)O (stereo partly drawn) [copper-64 labelled] — tumour-to-bone ratio (male nude mice, LNCaP xenograft; intravenous, 4 h; baseline: tumour over bone): 4.2 ± 1.7
COc1ccc2cc([C@H](C)C(=O)N[C@H](Cc3ccccc3)C(=O)N[C@H](Cc3ccccc3)C(=O)O)ccc2c1 — cumulative release (hydrogel 0.8 wt% into PBS; 24 h, pH 7.4, 37 °C): 6.5%
N=C(N)NCCC[C@@H]1NC(=O)[C@H](CCCCNC(=O)CNC(=O)CNC(=O)CNC(=O)CC[C@H](NC(=O)CNC(=O)CNC(=O)CNC(=O)CC[C@H](NC(=O)CN2CCN(CC(=O)O)CCN(CC(=O)O)CCN(CC(=O)O)CC2)C(=O)NCC(=O)NCC(=O)NCC(=O)N[C@@H](CCC(=O)NCC(=O)NCC(=O)NCC(=O)NCCCC[C@@H]2NC(=O)[C@@H](Cc3ccccc3)NC(=O)[C@H](CC(=O)O)NC(=O)CNC(=O)[C@H](CCCNC(=N)N)NC2=O)C(=O)NCC(=O)NCC(=O)NCC(=O)NCCCC[C@@H]2NC(=O)[C@@H](Cc3ccccc3)NC(=O)[C@H](CC(=O)O)NC(=O)CNC(=O)[C@H](CCCNC(=N)N)NC2=O)C(=O)NCC(=O)NCC(=O)NCC(=O)NCCCC[C@@H]2NC(=O)[C@@H](Cc3ccccc3)NC(=O)[C@H](CC(=O)O)NC(=O)CNC(=O)[C@H](CCCNC(=N)N)NC2=O)NC(=O)[C@@H](Cc2ccccc2)NC(=O)[C@H](CC(=O)O)NC(=O)CNC1=O [indium-111 labelled] — tissue uptake (female athymic nu/nu mice, U87MG tumour; intravenous, 111 kBq, 72 h): 5.59 ± 0.54 %ID/g
Cc1cc(-c2ccc(NC(=O)[C@H](CCCCNC(=O)CCOCCOCCC(=O)N[C@H](Cc3ccccc3)C(=O)N[C@H]3CSSC[C@@H](C(=O)N[C@H](C(=O)O)[C@@H](C)O)NC(=O)[C@H]([C@@H](C)O)NC(=O)[C@H](CCCCN)NC(=O)[C@@H](Cc4c[nH]c5ccccc45)NC(=O)[C@H](Cc4ccc(O)cc4)NC3=O)NC(=O)CN3CCN(CC(=O)O)CCN(CC(=O)O)CCN(CC(=O)O)CC3)c(C)c2)ccc1N=Nc1ccc2c(S(=O)(=O)O)cc(S(=O)(=O)O)c(N)c2c1O [lutetium-177 labelled] — whole-body effective half-life (metastatic neuroendocrine tumour patients, whole body; intravenous): 105 ± 12.3 h
N=C(N)NCCC[C@@H]1NC(=O)[C@H](CCCCNC(=O)CNC(=O)CNC(=O)CNC(=O)CC[C@H](NC(=O)CNC(=O)CNC(=O)CNC(=O)CN2CCN(CC(=O)O)CCN(CC(=O)O)CCN(CC(=O)O)CC2)C(=O)NCC(=O)NCC(=O)NCC(=O)NCCCC[C@@H]2NC(=O)[C@@H](Cc3ccccc3)NC(=O)[C@H](CC(=O)O)NC(=O)CNC(=O)[C@H](CCCNC(=N)N)NC2=O)NC(=O)[C@@H](Cc2ccccc2)NC(=O)[C@H](CC(=O)O)NC(=O)CNC1=O [indium-111 labelled] — tissue uptake (female athymic nu/nu mice, heart; intravenous, 24 h): 0.28 ± 0.04 %ID/g
C=C1CC[C@H](OCCCNC(=O)CCOCCOCCOCCOCCOCCOCCOCCOCCOCCOCCOCCOCCOCCOCCOCCOCCOCCOCCOCCOCCOCCOCCOCCOCCOCCOCCOCCOCCOCCOCCOCCOCCOCCOCCOCCOCCNC(=O)CCN2C(=O)CC(SC[C@H](NC(=O)[C@H](Cc3ccccc3)NC(=O)[C@H](CC(N)=O)NC(=O)[C@H](Cc3c[nH]cn3)NC(=O)[C@@H](NC(=O)[C@H](CC(=O)O)NC(=O)[C@H](CCC(N)=O)NC(=O)[C@H](CC(C)C)NC(=O)[C@H](CCCCN)NC(=O)[C@H](CCCCN)NC(=O)[C@H](CCCNC(=N)N)NC(=O)[C@H](CC(C)C)NC(=O)[C@H](Cc3c[nH]c4ccccc34)NC(=O)[C@H](CCC(=O)O)NC(=O)[C@@H](NC(=O)[C@H](CCCNC(=N)N)NC(=O)[C@H](CCC(=O)O)NC(=O)[C@H](CCSC)NC(=O)[C@H](CO)NC(=O)[C@H](CC(N)=O)NC(=O)[C@H](CC(C)C)NC(=O)[C@H](Cc3c[nH]cn3)NC(=O)[C@H](CCCCN)NC(=O)CNC(=O)[C@H](CC(C)C)NC(=O)[C@H](CC(N)=O)NC(=O)[C@H](Cc3c[nH]cn3)NC(=O)[C@H](CCSC)NC(=O)[C@H](CC(C)C)NC(=O)[C@H](CCC(N)=O)NC(=O)[C@@H](NC(=O)[C@H](CCC(=O)O)NC(=O)[C@H](CO)NC(=O)[C@@H](NC(=O)[C@@H](N)CO)C(C)C)[C@@H](C)CC)C(C)C)C(C)C)C(N)=O)C2=O)C/C1=C/C=C1\CCC[C@]2(C)[C@@H]([C@H](C)CCCC(C)(C)O)CC[C@@H]12 (stereo partly drawn) — dose-normalised Cmax (cynomolgus monkey; sc, 7 µg/kg every other day, 21 days; baseline: 0.7 µg/kg dose): 0.99

A few entries again:
CC(C)C[C@@H](NC(=O)[C@@H](CC(C)C)NC(=O)[C@@H](CC(=O)O)NC(=O)[C@@H](CC(C)C)NC(=O)[C@@H](CC(C)C)NC(=O)[C@@H](CC(C)C)NC(=O)[C@H](NC(=O)[C@@H](CC(=O)O)NC(=O)[C@H](NC(=O)[C@H]1CCCN1C(=O)[C@@H](Cc1ccccc1)NC(=O)[C@@H](CC(C)C)NC(=O)[C@@H](CC(C)C)NC(=O)[C@@H](CC(=O)O)NC(=O)[C@@H](CC(C)C)NC(=O)[C@@H](Cc1ccc(O)cc1)NC(=O)[C@@H](C)NC(=O)[C@@H](CCCNC(=N)N)NC(=O)[C@@H](Cc1c[nH]c2ccccc12)NC(=O)[C@H]1CCCN1C(=O)[C@@H](CC(N)=O)NC(=O)[C@@H](CCC(N)=O)NC(=O)[C@@H](CC(=O)O)NC(=O)[C@@H](CC(=O)O)NC(=O)[C@@H](CSC1CC(=O)N(CCNC(=O)CN2CCN(CC(=O)O)CCN(CC(=O)O)CC2)C1=O)NC(=O)[C@@H](C)N)[C@H](C)O)[C@H](C)O)C(=O)N[C@H](Cc1c[nH]c2ccccc12)C(=O)O (stereo partly drawn) [copper-64 labelled] — tumour-to-bone ratio (male nude mice, LNCaP xenograft; intravenous, 4 h; baseline: tumour over bone): 4.2 ± 1.7
